Results gathered from unrelated publications.
Protocols differ between the studies behind these lines.
Cell line: U2OS

Compound | assay | conditions | measurement | result
NCCOc1cc(NC(=O)c2cc(Cl)cc(C(=O)Nc3cc(OCCN)c4ccccc4n3)n2)nc2ccccc12 | cell growth or viability, ATP luminescence | 72 h | IC50 | 800 nM
CCN(C(=O)c1cc(F)ccc1Oc1nncnc1N1CCC2(C1)CN([C@H](CCCN(C)CCOC)C(C)C)C2)C(C)C | cell growth or viability | 72 h | GI50 | > 10000 nM
NCCCn1cc(COc2cc(C(=O)Nc3cc(OCCN)c4ccccc4n3)nc(C(=O)Nc3cc(OCCN)c4ccccc4n3)c2)nn1 | cell growth or viability, ATP luminescence | 72 h | IC50 | > 40000 nM
CC(C)=CC1OC(C)(C)C2C=C3C(=O)C(Cl)=CC(O)C3C3C(O)C4OC4C(=O)C132 (stereo not drawn) | cell growth or viability, MTS |  | IC50 | 3560 nM
O=c1c(-c2cnn(-c3ccccc3)c2)c(C(F)(F)F)oc2c(O)c(O)ccc12 | apoptosis, annexin V flow cytometry |  | EC50 | ~78000 nM
O=C(Nc1cc(OCCN2CCCC2)c2ccccc2n1)c1cccc(C(=O)Nc2cc(OCCN3CCCC3)c3ccccc3n2)n1 | cell growth or viability, ATP luminescence | 72 h | IC50 | 800 nM
Cn1ncc(-c2ccc3c(=O)[nH]nc(CN)c3c2)c1-c1c(F)c(Cl)cc(OC2CC2)c1C#N | cell viability, inhibitor, CellTiter-Glo | 120 h, baseline-subtracted | IC50 | 4570 nM
CCN1CCN(Cc2ccc(C(=O)Nc3ccc(C)c(NCc4cnc5[nH]ccc5c4OC)c3)cc2C(F)(F)F)CC1 | cell growth or viability |  | GI50 | 1200 nM
CC(C)c1ccc(N(C)c2ccc3c(c2)OCC[C@H]3CNc2cnccc2C(=O)O)cc1 | cell viability, CellTiter-Glo | 7 days | IC50 | 9.01 nM

A few entries again:
Compound | assay | conditions | measurement | result
CC(C)=CC1OC(C)(C)C2C=C3C(=O)C(Cl)=CC(O)C3C3C(O)C4OC4C(=O)C132 (stereo not drawn) | cell growth or viability, MTS |  | IC50 | 3560 nM
